Measurements of several laboratories.
Every numbered part comes from another study and shows a few of its results, in no order.

Study 1
Target: Prothrombin, mature alpha-thrombin (F2, Homo sapiens, UniProt P00734)
Technique: aptamer microarray, sandwich
Molecule type: DNA with 2'F-ANA
Medium: in vitro
Concentration: 200 nM
Setting: whole 15-mer aptamer, many near background
With: Cy3 exosite-II aptamer, 400 nM
Direction: higher = stronger binding
Endpoint: mean fluorescence intensity
GGTTGGTGTGGTTGG (2'F-ANA at 1 2 5 6 7 9 12 15): 99 a.u.
GGTTGGTGTGGTTGG (2'F-ANA at 1 2 3 4 5 7 9 14 15): 49.8 a.u.
GGTTGGTGTGGTTGG (2'F-ANA at 2 4 5 6 7 12 13 14 15): 48.1 a.u.
GGTTGGTGTGGTTGG (2'F-ANA at 1 2 3 4 9 12 14 15): 70.9 a.u.

Study 2
Target: RING finger protein unkempt homolog, zinc fingers 1-6, SBP tag (UNK, Homo sapiens, UniProt Q9C0B0, residues 30-357)
UniProt Q9C0B0, sequence (30-357, looked up): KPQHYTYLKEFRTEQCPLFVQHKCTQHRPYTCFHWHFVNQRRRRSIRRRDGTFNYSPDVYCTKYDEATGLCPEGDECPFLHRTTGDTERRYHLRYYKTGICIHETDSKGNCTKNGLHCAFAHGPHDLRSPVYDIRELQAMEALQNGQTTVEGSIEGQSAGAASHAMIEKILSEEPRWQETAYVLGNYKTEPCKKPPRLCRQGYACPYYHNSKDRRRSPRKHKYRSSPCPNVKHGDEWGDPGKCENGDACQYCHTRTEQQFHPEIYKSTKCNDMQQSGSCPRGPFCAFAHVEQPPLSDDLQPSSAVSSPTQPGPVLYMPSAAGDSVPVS
Technique: RNA Bind-n-Seq
Molecule type: RNA
Medium: in vitro
Concentration: 100 nM
Setting: RNA with constant flanks, vertebrate orthologous sites, ends assumed
Baseline: input RNA pool
Direction: higher = stronger binding
Endpoint: bound/input enrichment
Shared flanks, not repeated: GGGAGUUCUACAGUCCGACGAUC … CAACAGAGGAUUGAGCAUCA
AAAUUCCCCCAUUGUCACUGAGAACCACCAAAUCUGACUUUUACAUUUGGUCUCAGAAUUUAGGUUCCUGCCCUGUUGGGUUUUUUUUUUUUUUUUAAAAAAAAAAACCAGUUUUCAAAA: 0.655 ratio
AAAUUUAUUUCAUGCCCUGGACUCCCUACCGUACCGACACUUUAAUAGAGUACGCUUCUUUGGAAGAUUUCCAGAACAGUCGCCAAACAACAACAUACAAACUUCCAAAUCGAGUAGAUG: 0.856 ratio
AUCCCAGUUUGUAUGCACAUUAUUCACAUUCCUAUCUGUUGUGUUUGCAGAAAUGACAUUUUUACCUUUUCUAAGGGUUACUUUUUGAUUUUCAUAUUAUUUGGUUGCAUGAAGUUGCCC: 0.3 ratio
UACAUCUGGUGAUAUUUGGCCUGGCCUCUCAGCUUAUGAUAAUAGUCCUAGAUCACCUCAUAGUCCUUCACCAAUUGCUACACCACCUAGUCAGAGUUCAUCUUGCUCUGAUGCCCCCAU: 1.31 ratio
AUCCUCAACUCGCUCUGGCCUGUGACCCUUCAAAACUGGGCCAGGAUUAGUGCGAGGUGCUAGGAAUUGCCGUCUCUCGCGCCAUUGAUCAGAGAGACAGACAUUAAAACAGGAAUAUCA: 0.215 ratio
GUGAGGGUCUAGUGACCACUCACUGUUAUGUCUGGUAUCUGUAAACACUCUUUUGGUUCUUAGUCUUUUUCUUGUAUAAUUGAUGUUCUUUAAAAUUGUUAAUGUAUAACAGGGCUUAUG: 1.05 ratio

Study 3
Target: RNA binding protein fox-1 homolog 2, RRM domain, GST-SBP tag (RBFOX2, Homo sapiens, UniProt O43251-10, residues 100-194)
Technique: RNA Bind-n-Seq
Molecule type: RNA
Medium: in vitro
Concentration: 365 nM
Setting: natural RNA segment, single round, ends assumed
Baseline: no-protein control
Direction: higher = stronger binding
Endpoint: RBNS enrichment (R)
Shared flanks, not repeated: GGGAGUUCUACAGUCCGACGAUC … UGGAAUUCUCGGGUGCCAA
Target sequence (chain): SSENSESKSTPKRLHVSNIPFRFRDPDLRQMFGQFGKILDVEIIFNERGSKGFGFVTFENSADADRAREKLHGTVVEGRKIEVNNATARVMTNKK
UUAUAGAAAACUUUAGACCUGUGACAUUUUUUUGUUUUAAAUUACAAAAGAGGUUGGUAUGAUAAAGUGAUGGCUUUUUUCUUAUAUAAAUAGAAUGCAAAUCAAAGAUA: 0.955
CACUUUCCCUUAGCCCCUCUGCUGGGUAGAGAGGCACUUUCAGGGACUUCCCUCCAGCUGCCUCUUCAUCUGGGAAUGAGCUAAGCAAGGCUGAGCCUCCUCCUGUUGCU: 0.271
CCUGUGACUUCCACCUUGGGUUUAGUAAUGGGAGCUUGAGAUUGGAGAGCUGAGUCCUCUGUGGGUUCUGUAUUUAUCCAUUUGGCUUGAAGCUUUGUUUAUAUAUCGGC: 0.734
CUGAAUGUUGACAUGCCAGCGGGCGUGUGACCCUUCAUUUUCCCUUUCCCUUCCUUUGGACAGUGUUACAAUGAACACUUAGCAUUCUGUUUUUGGUUGAUAGUUGAGCA: 1.04
AAGGAAGAAGAUAUCAGUAGAAAAGGAAAUUGCAACCCUCAGCUCUGCAAACUCAGUCUCAUGCUCCUGGAAUACCUUCAAUAGCUGCCUUCCUCACCGCAGAUGUUUCU: 0.469

Single results of other studies
PhoQ, residues 284 288 289 292 302 303 SSCLAV
fold induction (PhoP, residues 12 14 15 18 19 DLLYY (Escherichia coli, UniProt P23836); Sort-seq, refers to: YFP reporter; E. coli; PhoQ-PhoP variant library, with: 10 µM Mg2+; baseline: high Mg2+ state, higher = stronger signaling): 3.28
